Measured values pooled from the literature.
Compare with care: the assays were run in different laboratories. ± gives the spread as reported.
Organism: Trypanosoma cruzi

| Structure (SMILES) | assay | system | conditions | IC50 |
| --- | --- | --- | --- | --- |
| CC(C)(C)c1ccc(OC(=O)/C=C/C#N)cc1 | parasite growth, resazurin | – | 72 h, epimastigote | 12.3 µM |
| C#CCO[C@H]1C[C@H]2[C@@H](C)C[C@H]3OC(=O)C(=C)[C@H]3C[C@]2(C)[C@H]1O | parasite growth, thymidine uptake | – | epimastigote | 25.1 µM |
| CC(=O)OC(CCl)Cn1cnc([N+](=O)[O-])c1 (stereo not drawn) | parasite growth | – | 24 h, trypomastigote | 1130 µM |
| N#Cc1cccc(OCC(N)COc2cccc(C#N)c2)c1 | parasite growth | L929, TULAHUEN | intracellular, amastigote | 6 µM |
| COc1ccc(Nc2c(C#N)cnc3ccc(Cl)cc23)cc1 | growth | Y, epimastigote | 72 h, added: 150 µM heme | 0.9 ± 1.2 µM |
| CC(=O)OC(CF)Cn1cnc([N+](=O)[O-])c1 (stereo not drawn) | parasite growth | – | 24 h, trypomastigote | 1050 µM |
| NNc1n[nH]c(=O)c2ccccc12 | parasite growth | – | 5 days, epimastigote | > 25 µM |
| COc1cc(O)c(-c2ccc(OC)c3c(OC)cc(C)cc23)c2c1[C@H](C)N(C)[C@H](C)C2 | – | Tulahuen C4, amastigotes | – | 92.9 µM |
| C=C1C(=O)O[C@@H]2C[C@H](C)[C@@H]3C[C@H](OCc4cn(Cc5ccccc5)nn4)[C@H](OCc4cn(Cc5ccccc5)nn4)[C@@]3(C)C[C@H]12 | parasite growth, thymidine uptake | – | epimastigote | 21.4 µM |
| CC(C)C[C@@H]1NC(=S)NC1=O | parasite growth | – | 24 h, trypomastigote | 115 µg/mL |
| COc1cc(/C=C/C(=O)N2CCN(c3ccccc3)CC2)ccc1O | parasite growth | mouse Peritoneal macrophage | 48 h, intracellular, amastigote | > 60 µM |
| Cc1ncc([N+](=O)[O-])n1CC(O)CO (stereo not drawn) | parasite growth | – | 24 h, trypomastigote | 1590 µM |
| FC(F)(F)c1ccc(N(c2cccnc2)C2CCN(c3ccc(C(F)(F)F)cn3)CC2)cc1 | parasite growth, resazurin | – | 48 h, epimastigote | 5.26 µM |
| Cc1nc([N+](=O)[O-])cn1CC(O)CCl (stereo not drawn) | parasite growth | – | 24 h, trypomastigote | 1690 µM |
| NC(COc1ccc2ccccc2c1)COc1ccc2ccccc2c1 | parasite growth | L929, Tulahuen β-galactosidase | amastigotes and trypomastigotes | inactive |
| N#C/C=C/C(=O)Oc1cccc(F)c1 | parasite growth, resazurin | – | 72 h, epimastigote | 5.06 µM |
| COc1cc(O)c(-c2ccc(OC)c3c(O)cc(C)c(-c4cc(-c5c(O)cc(OC)c6c5C[C@@H](C)N[C@@H]6C)c5cc(C)cc(OC)c5c4O)c23)c2c1[C@@H](C)N(C)[C@H](C)C2 | – | Tulahuen C4, amastigotes | – | 19.7 µM |
| C=C1C(=O)O[C@@H]2C[C@H](C)[C@@H]3C[C@H](O)[C@H](O)[C@@]3(C)C[C@H]12 | parasite growth, thymidine uptake | – | epimastigote | 11.2 µM |
| Cc1nc(C(=O)N2CCC[C@@H]2C(=O)N[C@H](CCC2CCCCC2)C(=O)N[C@H](CC(C)C)C(=O)NC(C)(C)C(=O)N[C@H](CC(C)C)C(=O)N[C@H](CC(C)C)C(=O)NC(C)(C)C(=O)NC(C)(C)C(=O)NCCC(=O)NC2(CN(C)C)CCC2)co1 | beta-galactosidase | L6, Tulahuen C2C4 | – | 0.311 µM |
| NC(COc1cccc2ccccc12)COc1cccc2ccccc12 | parasite growth | L929, TULAHUEN | intracellular, amastigote | 13 µM |
| COc1ccc(OC(=O)/C=C/C#N)cc1 | parasite growth, resazurin | – | 72 h, epimastigote | 10.2 µM |
| CO/N=C(\C)c1ccc(-n2ccnc2)c(NC(=O)c2cnc(-c3ccccc3)nc2)c1 | parasite growth, resazurin | – | 48 h, epimastigote | 6.11 µM |
| NNc1nnc(Cl)c2ccccc12 | parasite growth | – | 5 days, epimastigote | > 25 µM |
| C=C1C(=O)O[C@@H]2C[C@H](C)[C@@H]3C[C@H](OC(C)=O)[C@H](OC(C)=O)[C@@]3(C)C[C@H]12 | parasite growth, thymidine uptake | – | epimastigote | 9.12 µM |
| NC(COc1ccc([N+](=O)[O-])cc1)COc1ccc([N+](=O)[O-])cc1 | parasite growth | L929, TULAHUEN | intracellular, amastigote | 10 µM |
| N#C/C=C/C(=O)Oc1ccc(Br)cc1 | parasite growth, resazurin | mouse Macrophage | 24 h, intracellular, amastigote | 14.9 µM |
| C=C1C(=O)O[C@@H]2C[C@H](C)[C@@H]3C[C@H](OCc4cn(Cc5ccccc5)nn4)[C@H](O)[C@@]3(C)C[C@H]12 | parasite growth, thymidine uptake | – | epimastigote | 33.9 µM |

Some of these lines once more:
| Structure (SMILES) | assay | system | conditions | IC50 |
| --- | --- | --- | --- | --- |
| FC(F)(F)c1ccc(N(c2cccnc2)C2CCN(c3ccc(C(F)(F)F)cn3)CC2)cc1 | parasite growth, resazurin | – | 48 h, epimastigote | 5.26 µM |
| CC(C)C[C@@H]1NC(=S)NC1=O | parasite growth | – | 24 h, trypomastigote | 115 µg/mL |
| COc1ccc(Nc2c(C#N)cnc3ccc(Cl)cc23)cc1 | growth | Y, epimastigote | 72 h, added: 150 µM heme | 0.9 ± 1.2 µM |
| Cc1nc([N+](=O)[O-])cn1CC(O)CCl (stereo not drawn) | parasite growth | – | 24 h, trypomastigote | 1690 µM |
